Experimental data gathered from unrelated publications.
Parts stem from different laboratories: compare values within a part only. Substitutions count along the parent as printed.

Block 1 — target: CCNA1, cyclin fold, Cln2 fusion (human); method: yeast growth competition, sequencing; matrix: yeast; notes: weak parent motif; reference: not given; direction: higher = stronger binding
Starting sequence: MICAL3 docking peptide (human); LQLRRQLSFSEDS; partner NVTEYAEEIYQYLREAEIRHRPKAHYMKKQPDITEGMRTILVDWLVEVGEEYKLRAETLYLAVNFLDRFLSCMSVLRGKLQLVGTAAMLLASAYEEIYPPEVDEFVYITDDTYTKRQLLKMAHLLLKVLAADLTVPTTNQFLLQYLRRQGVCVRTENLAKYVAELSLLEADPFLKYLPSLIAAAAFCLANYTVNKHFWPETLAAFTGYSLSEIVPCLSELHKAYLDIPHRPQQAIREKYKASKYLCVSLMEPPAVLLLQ
Under “normalised enrichment score”, `LQLRRILSFSEDS [Q6I]` is recorded as 0.102.
Under “normalised enrichment score”, `LQLRRQLSFSTDS [E11T]` is recorded as 0.321.
`LQLRRLLSFSEDS [Q6L]`: “normalised enrichment score” 0.0872.
For `LQLRRQLSFTEDS [S10T]`, “normalised enrichment score” read 0.536.
Under “normalised enrichment score”, `LQYRRQLSFSEDS [L3Y]` is recorded as 0.196.
`LQLRRYLSFSEDS [Q6Y]`: “normalised enrichment score” 0.171.
Under “normalised enrichment score”, `LWLRRQLSFSEDS [Q2W]` is recorded as -0.115.
`LQLVRQLSFSEDS [R4V]` — result for “normalised enrichment score”: -0.0689.
For `LQLRRQLSLSEDS [F9L]`, “normalised enrichment score” read -0.0573.
`LQLRRQLSFYEDS [S10Y]` — result for “normalised enrichment score”: 0.681.
`LQLRRQLSFSWDS [E11W]`: “normalised enrichment score” 0.167.
Under “normalised enrichment score”, `LQLRRQLSFSSDS [E11S]` is recorded as 0.184.
For `LQLRPQLSFSEDS [R5P]`, “normalised enrichment score” read 0.224.
`LQLRRQLSNSEDS [F9N]`: “normalised enrichment score” -0.264.
`LQLRRQLQFSEDS [S8Q]`: “normalised enrichment score” 0.78.
Under “normalised enrichment score”, `LNLRRQLSFSEDS [Q2N]` is recorded as 0.285.

Block 2 — method: RNA Bind-n-Seq; molecule type: RNA; matrix: in vitro; concentration: 365 nM; reference: no-protein control; direction: higher = stronger binding
Target: RNA binding protein fox-1 homolog 2, RRM domain, GST-SBP tag (RBFOX2, Homo sapiens, UniProt O43251-10, residues 100-194)
Notes: natural RNA segment, single round, ends assumed
Shared flanks, not repeated: GGGAGUUCUACAGUCCGACGAUC … UGGAAUUCUCGGGUGCCAA
Construct (chain): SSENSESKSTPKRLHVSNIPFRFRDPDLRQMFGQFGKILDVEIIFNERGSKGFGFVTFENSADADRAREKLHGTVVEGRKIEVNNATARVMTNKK
Under “RBNS enrichment (R)”, `UUGAAUUUUGUUGUCCGGCCCUCAGUGCCCUGCCCUCUCCCUUACCAGGACCACAGCUCUGUUCCUUCGGCCUCUGGUCCUCUCUGGUCCCCUCCUGGGUUUCUUACGUA` is recorded as 0.315.
`ACAUAUCUGCAGUCCCAGCACAGUGGGACAAAAAGAAUUUAGACCCCAAAAGUGUCCUCGGCAUGGAUCUUGAACAGAACCAGUAUCUGUCAUGGAACUGAACAUUCAUC` — result for “RBNS enrichment (R)”: 0.607.
`CCCUCUUGGCUCAUUCCAAGCUUGGCCAAAUUGGGGAAGUGGGAUGGAGGUUGCCCUGCAUCCCCCCUCCUCUGCCUGAGUGUGUCUUUGUAAUGUCAGCUGGCAUCAUA`: “RBNS enrichment (R)” 0.538.
`GCUCCCUCAAAUAUGUAUCUGAUGAGAUUCUUUAAUUCCCAACUCCAUGUGUGUGCGAGCACGCGUGUCUGUGUCUGUGUGUGCAUACUUCUGUGACUUUAGACAUGCUU`: “RBNS enrichment (R)” 0.721.
Under “RBNS enrichment (R)”, `UUGACACAGGGGCAGAAGAAACCCCAGAUGUCCCAGAUGUCCCAGAACAUCAGCCCAAAAGACAGAAGAUUUUAUCACUCAUCUACCCCAAAGAUAAAGUUGUAUUUUUU` is recorded as 0.504.
`AUGCUACGUGACAGUUUGAAACCUUCACAGUUAUCCUCUGGGGGUAAAUCAAUUCUUCAACCCUUGGGUGUGUGAGUUUGAGGCAGGGUCAUUUGUGUGAUGUGUUUGGC` — result for “RBNS enrichment (R)”: 0.348.
Under “RBNS enrichment (R)”, `CCAUAGCUCAUCACCCCUGUCUCCUGCUGAAUGUGCAGGGCUGAUGUGGCACUGAGGAGCUGACUUUGGUCAAAGGCCAGGCUCUGCCCAGCAGGGGACUUGACUGCCCU` is recorded as 0.471.
`GAUGCUUGUAAAUACUAUUUAUGUUUUUAAUUUUGUAAAAUAAAGAUUUCUUUUUAACCACUGGCAUUAAGGUUUGGUCUUUCAUAGCUAUGGAUUGCUGGCUCUGGAAG` — result for “RBNS enrichment (R)”: 2.6.

Block 3 — method: RNA Bind-n-Seq; molecule type: RNA; matrix: in vitro; concentration: 200 nM; notes: whole 134-nt RNA, ends assumed; together with: 150 mM LiCl; reference: input library; direction: higher = stronger binding; library: 7-deaza-guanosine replaces G
Target: Fragile X messenger ribonucleoprotein 1, C-terminal low-complexity region (Fmr1, Mus musculus, UniProt P35922)
Shared flanks, not repeated: GGGAGUUCUACAGUCCGACGAUC … UGGAAUUCUCGGGUGUCAAGG
With `CUCAAGUCCUGUGCUACACAUCGUAUGUACCGAAUCGGGGUUGGGUUGGUUGGGAAAGUAUUAUGUUACGCCGUUCGGAUCUGCACUUCC` the log2 enrichment was 0.0836.
The log2 enrichment of `GUCCUGUGCUACACAUCGUAUGUACCGAAUCGGGGAAAAAGGAAAAAGGAAAAAGGGGAAAGUAUUAUGUUACGCCGUUCGGAUCUGCAC` is reported as 0.254.
`UGGAGGAGCCAUAGAAUAUUAAGGAUGAAUUCAGGAAGGCCUGAGACCAUGGAAAACUUGCCUGCUCUCUACACUAUUUUCCAAGGAGAG` has a log2 enrichment of 0.182.
`UCAAGUCCUGUGCUACACAUCGUAUGUACCGAAUCGGUUUUUUUGGUGGUUUGGAAAGUAUUAUGUUACGCCGUUCGGAUCUGCACUUCC` has a log2 enrichment of -1.52.
`UGGCCCUGGUGGCAUGCGGGGAGGAAGAGGUGGCCUCAUGGAUCGUGGUGGUCCCGGUGGAAUGUUCAGAGGUGGCCGGGGUGGAGACAG` gave a log2 enrichment of -0.886.
With `CUGUGCUACACAUCGUAUGUACCGAAUCGGGGUUUUUUUGGUUUUUUUGGGGUUUUUUUGGGAAAGUAUUAUGUUACGCCGUUCGGAUCU` the log2 enrichment was 0.766.
`CACAGACAACACGCACCCACACAGACACAGAGGGAAGGGGUUGGGAUGGGGACAGGGUGCACAGUAGGGCGGGGUAGGACCCCAGCCCCU` has a log2 enrichment of -0.0637.
The log2 enrichment of `CAAGUCCUGUGCUACACAUCGUAUGUACCGAAUCGGGUUUUUGGGAAAGGGUGGGAAAGUAUUAUGUUACGCCGUUCGGAUCUGCACUUC` is reported as -1.02.

Block 4 — method: protein binding microarray; molecule type: double-stranded DNA, one strand shown; matrix: in vitro; concentration: not given; reference: not given; direction: higher = stronger binding
Target: Histone acetyltransferase KAT6A, both winged helices, GST fusion (KAT6A, Homo sapiens, UniProt Q92794, residues 1-181)
Notes: 8-mer, flanks averaged, mean of 2 arrays, mostly near background
Construct (chain): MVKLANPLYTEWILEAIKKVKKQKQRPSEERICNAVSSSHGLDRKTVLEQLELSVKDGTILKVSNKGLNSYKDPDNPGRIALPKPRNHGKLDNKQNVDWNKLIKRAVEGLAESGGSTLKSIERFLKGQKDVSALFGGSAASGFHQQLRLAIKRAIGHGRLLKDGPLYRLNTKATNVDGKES
The E-score of `CCGTGTCG` is reported as 0.241.
With `ATCAAAAG` the E-score was 0.0445.
The E-score of `AAATCTCG` is reported as 0.0234.
The E-score of `ACAATTCG` is reported as 0.0209.
The E-score of `AATGCTCG` is reported as -0.106.
`CTCAGCTA` has an E-score of -0.128.
For `CTGGTAGC`, the E-score was -0.125.
For `ATTTGACG`, the E-score was 0.166.
The E-score of `ACCTCAGT` is reported as -0.121.
`CGCTACTA` gave an E-score of 0.0889.
`TGAATTAA` has an E-score of -0.0623.
`CACAATGG` gave an E-score of -0.152.
`AGTTCGAG` has an E-score of -0.0642.
With `ACGAAAGT` the E-score was -0.0512.
For `ACGCGGGC`, the E-score was 0.245.
`ACTTGCGG` gave an E-score of 0.0862.
With `TATTGGCA` the E-score was -0.237.
`AAACGGCG` has an E-score of 0.243.

For quick reference, copied from above (block 2):
Under “RBNS enrichment (R)”, `CCAUAGCUCAUCACCCCUGUCUCCUGCUGAAUGUGCAGGGCUGAUGUGGCACUGAGGAGCUGACUUUGGUCAAAGGCCAGGCUCUGCCCAGCAGGGGACUUGACUGCCCU` is recorded as 0.471.
`CCCUCUUGGCUCAUUCCAAGCUUGGCCAAAUUGGGGAAGUGGGAUGGAGGUUGCCCUGCAUCCCCCCUCCUCUGCCUGAGUGUGUCUUUGUAAUGUCAGCUGGCAUCAUA`: “RBNS enrichment (R)” 0.538.
`GAUGCUUGUAAAUACUAUUUAUGUUUUUAAUUUUGUAAAAUAAAGAUUUCUUUUUAACCACUGGCAUUAAGGUUUGGUCUUUCAUAGCUAUGGAUUGCUGGCUCUGGAAG` — result for “RBNS enrichment (R)”: 2.6.
`GCUCCCUCAAAUAUGUAUCUGAUGAGAUUCUUUAAUUCCCAACUCCAUGUGUGUGCGAGCACGCGUGUCUGUGUCUGUGUGUGCAUACUUCUGUGACUUUAGACAUGCUU`: “RBNS enrichment (R)” 0.721.
`AUGCUACGUGACAGUUUGAAACCUUCACAGUUAUCCUCUGGGGGUAAAUCAAUUCUUCAACCCUUGGGUGUGUGAGUUUGAGGCAGGGUCAUUUGUGUGAUGUGUUUGGC` — result for “RBNS enrichment (R)”: 0.348.
